Measured values from different studies.
Protocols differ between the studies behind these lines. ± marks the error that the study gave.

`CC(C)(C(=O)N1CCOc2c(C#N)cncc2C1)C(F)F`: “subjects with dizziness TEAE” 0% (human, both sexes; oral, 10 mg single dose).
`COc1ccnc(C(N)=O)c1O` — result for “Freundlich coefficient KF”: 16.5 mL/g (soil adsorption; tested soils; geometric mean).
Under “treatment-related adverse events”, `FC(F)(F)c1ccc(CNc2ccc(Cc3c[nH]c4ncc(Cl)cc34)cn2)cn1` is recorded as 10% (refers to: peripheral oedema; human, advanced solid tumours, all patients; oral, 1000 mg/day, any grade).
`C[C@@H](c1ncncc1F)[C@](O)(Cn1cncn1)c1ccc(F)cc1F`: “drug-related TEAE incidence” 0% (refers to: Hallucinations; human; oral, 200 mg).
For `Cn1cc(Nc2nccc(-c3ccc4c(c3)CN(C3COC3)CC[C@H]4NC(=O)c3cn(C(C)(C)C)nn3)n2)cn1`, “plasma cell count change” read 280% (human, whole blood; 300 mg twice daily, day 7; reference: pre-dose baseline).
`Cc1c(C(=O)O)ccc2c3n(nc12)[C@@H]1[C@H](C3)N(CC2CC2)[C@@]2(C(=O)Nc3cc(Cl)ccc32)[C@H]1c1cccc(Cl)c1F` gave an AUC(0-t) of 24.2 µM·h (female BALB/c nude mice, SJSA-1 xenograft, plasma; oral, 1 mg/kg twice daily, 2 doses, individual animals).
`CC(C)NCCCC[C@@H]1NC(=O)[C@H](Cc2ccc(O)cc2)NC(=O)[C@H](Cc2ccccc2)NC(=O)CC[C@H](C(=O)N[C@@H](CCCCNC(C)C)C(=O)N[C@@H](CCCCNC(=O)[C@H](CCC(=O)O)NC(=O)[C@H](CCC(=O)O)NC(=O)[C@H](CCC(=O)O)NC(=O)CN2CCN(CC(=O)O)CCN(CC(=O)O)CCN(CC(=O)O)CC2)C(N)=O)NC(=O)CNC(=O)[C@H](Cc2ccc3ccccc3c2)NC(=O)[C@@H](CCCNC(=N)N)NC1=O` [gallium-68 labelled] has a tissue uptake of 0.57 %ID/g (mouse with Daudi xenograft, liver; intravenous, 1 h).
`O=C(CCc1nncn1-c1ccccc1)NCc1nocc1C(=O)O` — result for “DLS scattered light intensity”: 3.14e+06 counts/s (colloidal aggregate formation, dynamic light scattering; 50 mM potassium phosphate buffer; 200 µM, pH 7.0, 1% DMSO; higher = more aggregation).
`O=C(O)CCCCCCCCCCC(=O)O` — result for “daily mean concentration”: 44.1 ± 4.7 nM (human, plasma; endogenous baseline diurnal).
`CO/N=C(\C(=O)N[C@@H]1C(=O)N2C(C(=O)[O-])=C(C[N+]3(C)CCCC3)CS[C@H]12)c1csc(N)n1` — result for “deviation from nominal concentration”: 5.6% (human whole blood; concentration not given, 48 h, 4 °C).
For `O=C(/C=C/c1ccccc1)Nc1ccc(C(=O)Nc2nccs2)cc1`, the HC50 was over 128 µg/mL (haemolysis; sheep erythrocytes; 1 h, pH 7.5).
`COc1cccc(OC)c1-c1cc(C(=O)NC2(C(=O)O)C3CC4CC(C3)CC2C4)nn1-c1ccc(C(=O)N(C)CCCN(C)CCCN(C)C(=O)CN2CCN(CC(=O)[O-])CCN(CC(=O)[O-])CCN(CC(=O)[O-])CC2)cc1C(C)C.[177Lu+3]` (stereo not drawn) — result for “tumour-to-large intestine ratio”: 61.3 (mouse HT-29 xenograft; 24 h, biodistribution; reference: tumour over large intestine).
`O=C(COc1ccc(Cl)cc1)NC12CC(c3nnc([C@H]4C[C@@H](OC(F)(F)F)C4)o3)(C1)C2` — result for “participants with headache”: 66.7% (human both sexes; oral, 45 mg once daily, 14 days).
For `CC(C)OCc1ccccc1NS(=O)(=O)c1cccc(Cl)c1O`, “DLS scattered light intensity” read 1.03e+06 counts/s (colloidal aggregate formation, dynamic light scattering; 50 mM potassium phosphate buffer; 200 µM, pH 7.0, 1% DMSO; higher = more aggregation).
`Cc1ccc(C(=O)N(CCCN)C(c2nc3snc(C)c3c(=O)n2Cc2ccccc2)C(C)C)cc1` (stereo not drawn): “plasma concentration at 24 h” 8 ng/mL (human patients, plasma; intravenous, 7 mg/day, day 3 of induction course, geometric mean).
The Ctrough of `Cl.[2H]C([2H])([2H])CC(=O)c1cnc(NC(=O)C2CC2)cc1Nc1cccc(-c2ncn(C([2H])([2H])[2H])n2)c1OC` is reported as 45.5 ng/mL (human, plasma; oral, 60 mg once daily, day 14, nonfasted, tablet, geometric mean).
`COc1ccc2c(c1)CN(C(=O)CCN1CCC(Cc3ccccc3)CC1)CC[S@@+]2[O-]` gave a urinary excretion of 7.04 ± 2.28% (healthy male volunteers, urine; intravenous, 0.05 mg/kg; reference: dose).
`Cc1c(-c2ccc(N3CCc4cccc(C(=O)Nc5nc6ccccc6s5)c4C3)nc2C(=O)O)cnn1CC12CC3(C)CC(C)(C1)CC(OCCNCC[C@H](O)CO)(C3)C2` — result for “PR interval change”: 0 ms (beagle dog, anaesthetised; intravenous infusion, 0.3 mg/kg/min, 90 min; reference: vehicle).
The brain concentration of `Cn1cc([C@H]2C[C@H]3CSC(N)=N[C@@]3(c3ccc(F)cc3F)CO2)cn1` is reported as 65 nM (male 129/SVE mouse, brain; subcutaneous, 10 mg/kg, 13 h).
Under “fraction excreted unchanged in urine”, `Cn1cc(-c2cn3nccc3c(-c3cnn([C@]4(CC#N)C[C@@H](C#N)C4)c3)n2)cn1` is recorded as 1.2% (human, urine; oral, 1200 mg once daily, day 10, dosing interval geometric mean).
`C/C(O)=C(\C#N)C(=O)Nc1ccc(C(F)(F)F)cc1` has a blood concentration of 251000 ± 130000 nM (CD-1 mice female, whole blood; oral, 30 mg/kg leflunomide daily, 24 h, after dose 10).
The concentration of `CCCC1CCC(c2ccc(-c3ccc(CC)cc3)cc2)CC1` (stereo not drawn) is reported as 0.47 ng/mL (refers to: compound; human pregnant women, female fetuses, maternal serum; dose not given, paired maternal-cord samples, mean).
Under “incidence of abdominal discomfort”, `CCO[C@H]1CCN(Cc2c(OC)cc(C)c3[nH]ccc23)[C@H](c2ccc(C(=O)O)cc2)C1` is recorded as 0% (PNH patients, active haemolysis; oral, 25 mg, 4 weeks, treatment).
`COc1cc2nccc(Oc3ccc(NC(=O)c4cc5c(n(-c6ccccc6)c4=O)CCCC5=O)nc3)c2cc1OC` — result for “grade ≥3 Fatigue patients”: 10% (relapsed or refractory AML; oral, all dose levels).
For `O=C(c1cccnc1-c1ccncc1)N1CCC(O)(Cc2ccccc2)CC1`, “placebo-corrected change in heart rate” read -4.5 bpm (continuous Holter ECG; healthy Japanese adults; oral, 1200 mg, 12 h postdose, least-squares mean).
`C[C@@H]1CN(c2c(F)c(N)c3c(=O)c(C(=O)O)cn(C4CC4)c3c2F)C[C@H](C)N1` gave a QTc interval of 366 ± 0.6 ms (male Hartley guinea pig, anaesthetized; intravenous infusion, 10 mg/kg, 10 min infusion, post-infusion).
`Cc1ccc(Sc2ccccc2N2CCNCC2)c(C)c1` — result for “participants with TEAE”: 0% (refers to: eosinophil count increased; healthy adult men; oral, 10 mg daily, 12 days).
For `NC1(C(=O)N[C@@H](CCO)c2ccc(Cl)cc2)CCN(c2nc[nH]c3nccc2-3)CC1`, “incidence of Fatigue” read 0% (metastatic CRPC patients; 320 mg b.i.d., grade 3 to 4, treatment-related, with: enzalutamide 160 mg daily).
`CC(C)(Sc1ccncc1-c1ccc(C#N)c2ccccc12)C(=O)O`: “fraction excreted in urine (0-24 h)” 1.66% (human, urine; oral, 10 mg, with: febuxostat 20 mg).
With `CNC(=O)c1ccc(-c2cnc3ncc(Cc4ccc5ncccc5c4)n3n2)cc1F` the AUC(0-inf) was 7240 ng·h/mL (human mild hepatic impairment NCI; oral, 200 mg single dose, mean).
Under “DLS scattered light intensity”, `O=C(O)c1occc1S(=O)(=O)NCc1ccc(-c2ccccc2)s1` is recorded as 1.14e+06 counts/s (colloidal aggregate formation, dynamic light scattering; 50 mM potassium phosphate buffer; 200 µM, pH 7.0, 1% DMSO; higher = more aggregation).
`N#Cc1ccc2c(c1)[C@H]1CCCN(C(=O)c3ccc4[nH]cnc4c3)[C@H]1C2`: “median ACTH level” 4.8 pmol/L (human; 360 mg, end of trial).
`CCc1cc(C(=O)NC)c2nccc(N3CCc4c(cc(Cn5ccnc5)cc4-c4cn(C)nc4C(F)(F)F)C3=O)c2c1`: “change in clinical chemistry or haematology parameter” -20.6% (refers to: Eos; Sprague Dawley rat; oral, 50 mg/kg once daily, 7 days; reference: vehicle).
Under “bench-top stability accuracy”, `CCc1nc(C(N)=O)c(Nc2ccc(N3CCC(N4CCN(C)CC4)CC3)c(OC)c2)nc1NC1CCOCC1` is recorded as 94.3% (mouse plasma; 15 ng/mL, 6 h, 25 °C).
`CNC(=O)c1ccc(-c2cnc3ncc(Cc4ccc5ncccc5c4)n3n2)cc1F` gave a Tmax, median of 2 h (human, plasma; oral, 300 mg twice daily, capsule, cycle 1 day 15).
`COc1c(OCCCN2CCOCC2)ccc2c1N=C(NC(=O)c1cnc(N)nc1)N1CCN=C21` — result for “serious adverse events”: 44.7% (relapsed iNHL patients; intravenous, 60 mg).
`COC1=C(OC)[C@H](O)[C@H](C/C=C(\C)CC/C=C(\C)CCC=C(C)C)[C@@H](C)C1=O` has a blood concentration of 54.8 nM (Balb/c mice male, whole blood; oral, 50 mg/kg, 1 h).
For `O=C1CN(c2ccc(NS(=O)(=O)c3cccc(Cl)c3O)cn2)CCN1`, “DLS scattered light intensity” read 1.04e+08 counts/s (colloidal aggregate formation, dynamic light scattering; 50 mM potassium phosphate buffer; 200 µM, pH 7.0, 1% DMSO; higher = more aggregation).
`CCOc1c([C@H](C)n2nc(C)c3c(N)ncnc32)cc(Cl)c(F)c1[C@@H]1CNC(=O)C1` — result for “share of patients”: 9.1% (refers to: 30 < ΔQTcF ≤ 60 ms; previously treated B-cell malignancy; oral, dose not given, baseline QTcF ≤450 ms, all doses).
